Results collected from several papers.
Every numbered part comes from another study and shows a few of its results, in no order.

Sample 1 — method: RNA Bind-n-Seq; form: RNA; medium: in vitro; concentration: 365 nM; baseline: no-protein control; direction: higher = stronger binding
Target: RNA binding protein fox-1 homolog 2, RRM domain, GST-SBP tag (RBFOX2, Homo sapiens, UniProt O43251-10, residues 100-194)
Notes: natural RNA segment, single round, ends assumed
Construct (chain): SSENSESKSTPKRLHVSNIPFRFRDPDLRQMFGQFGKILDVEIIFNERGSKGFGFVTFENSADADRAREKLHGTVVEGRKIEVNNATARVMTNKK
`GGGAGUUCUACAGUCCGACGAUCCCUUGGGGUCCGGGAUCCAGCAUCAGGGUCUCUAUACCCCAGGAUCCUCCAUGCCACAUGGUCACUGCUCUCCUCAGGGACCAGGACAAGGUGCUGCUGCUUGCCCAAAUUGGAAUUCUCGGGUGCCAA`: “RBNS enrichment (R)” 0.968.
`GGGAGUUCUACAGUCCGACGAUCGGAAAGAAAGUUGAAGACUGUUCUCUGGCUUCUCCUACCUAGGUACAGCAGACUGUAGUACCUCACAGCCCACUUGAGCCCUGGCUUCUCUCAGCAUCACAGAUGAAACUUGGAAUUCUCGGGUGCCAA`: “RBNS enrichment (R)” 1.15.
`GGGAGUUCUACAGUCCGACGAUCAUGGACAUUAGGUAUCCCAACAUAACCAUCUGGAGUGUGUCCAGUUUGUUCUUCAUAGGACCAAUUUUUAUUUGCAGCUUGAGUUUUUAUAUGAAGUUGCAUUAUUGUGGUGGAAUUCUCGGGUGCCAA` — result for “RBNS enrichment (R)”: 0.656.
`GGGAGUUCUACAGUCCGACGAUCGUGGAUUUGAAGAGGGGUUGAAAGAAAGGAAGCAUUCCUCUUGCUUUAAACUAGUAUGUGCAUCAGAUGCUUACAGCAGAAGUUUGCACAGGUAAGAGAAGCUGCCAGUGUGGAAUUCUCGGGUGCCAA`: “RBNS enrichment (R)” 0.431.
`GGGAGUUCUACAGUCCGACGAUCUUGGGACCCGCUGGUGACAGUGGCUCAGAAGAGGGACAGAAAAGCCUUGGACUUAGAUCUGGGUUCUAACAGACUGAAUGUGCACCUUGGGUCUCAGACUCAGUUUCCCCUGGAAUUCUCGGGUGCCAA`: “RBNS enrichment (R)” 0.263.
For `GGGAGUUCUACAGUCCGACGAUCGAUGUGUUUACAGGUCCCUGUAAGCAGUGUUAGGUCCAUAGGCUUUUAUGACUCCAGUCUGCAAGCAGUGUUAGGUUGACCUCAUAGGCUUUUAUGAUUCCAGUCUGCUGUGGAAUUCUCGGGUGCCAA`, “RBNS enrichment (R)” read 0.525.
For `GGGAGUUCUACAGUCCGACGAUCCCAUCCUUAAUCCAAAAUUUUGAGUCAAGUCUUAUAAGUGGAAAAUUCCAGUGAACAUUUAUUUUGUAUAUAAAAUUUUAAACCUAUUGUGUGAAGCUACCCUCAGGCUAUGGAAUUCUCGGGUGCCAA`, “RBNS enrichment (R)” read 1.04.
Under “RBNS enrichment (R)”, `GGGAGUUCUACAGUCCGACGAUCAAGUAAUUUGUUGACACGAAAAUUUUGGAGGAACCAAUUGAAAACACACUUCCAGUCUAGAUGAUGCUUUGUGUGAUACAUUAAGUUCUUAUUUUGGAUUAAAAGAAGUUUGGAAUUCUCGGGUGCCAA` is recorded as 0.519.
Under “RBNS enrichment (R)”, `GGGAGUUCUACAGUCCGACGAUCUGCUGAGGCCUCUACCAGUUCACUCUCUCCCUUGGAAGUGGAAUUCUACCCACCUAAACCCCCCAAAAAAGACAAAACGAAAAGAAGCCACUUCAUCUUAUGUGCCGCUGUGGAAUUCUCGGGUGCCAA` is recorded as 0.532.
`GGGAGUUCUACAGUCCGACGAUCAAAAGUUAGCAGUUUGUUUUGUCAACUUGUAACUGGGUCAUAGCCUUGCUGAGUGAAACCAACUCAUUUCUGAUUGGGCACAAAGAACUGCAUUCUUUGGACGUGUGAAUUGGAAUUCUCGGGUGCCAA`: “RBNS enrichment (R)” 0.427.
`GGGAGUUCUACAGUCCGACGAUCGGAUGUCUUUGGUAUUUUCUGUAGUAGAAACUAAAGCAAAGACCACAAGUUUCAGAGCAUGGAGACAUUCCUGCUGAAUCGCCUUCUCACCUCCUCGGCAAUUGCUCAUUUGGAAUUCUCGGGUGCCAA` — result for “RBNS enrichment (R)”: 0.333.
Under “RBNS enrichment (R)”, `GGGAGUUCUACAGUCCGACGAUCAUAUGUAUGUAUAUACACACGUACAUACAUUCAUAUAUAUACAUAUAUACAUAAUGUGCUUAACCACUGCCUUUUAAAACUUUAAAUUAAAUAAAACAUUGGGGUUGAUUUGGAAUUCUCGGGUGCCAA` is recorded as 0.396.

Sample 2 — method: protein binding microarray; form: double-stranded DNA, one strand shown; medium: in vitro; concentration: not given; baseline: not given; direction: higher = stronger binding
Target: Histone acetyltransferase KAT6A, both winged helices, GST fusion (KAT6A, Homo sapiens, UniProt Q92794, residues 1-181)
Notes: 8-mer, flanks averaged, mean of 2 arrays, mostly near background
Target sequence (chain): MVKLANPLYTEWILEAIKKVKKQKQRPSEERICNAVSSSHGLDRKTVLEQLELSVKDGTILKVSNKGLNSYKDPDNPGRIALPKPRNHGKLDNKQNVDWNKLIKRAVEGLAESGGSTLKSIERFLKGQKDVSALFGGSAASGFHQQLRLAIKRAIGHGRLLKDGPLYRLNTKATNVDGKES
`CTCCACAG` gave an E-score of -0.187.
For `GGCGAGAA`, the E-score was -0.00734.
With `ACTTCCCA` the E-score was -0.137.
`TAAGACAA` gave an E-score of 0.00689.
`CCCTTCCC` gave an E-score of -0.0517.
With `TAAAGGCA` the E-score was -0.193.
For `AACACAAG`, the E-score was -0.0805.
The E-score of `AACTTCGG` is reported as -0.0438.
For `CGCCGACG`, the E-score was 0.333.
`AGGACCGG` gave an E-score of 0.114.
`CAATTTAC` gave an E-score of -0.0351.
With `AGTTGGTG` the E-score was -0.133.
`CCCGTCTC` gave an E-score of 0.223.
`CTTCCGGC` gave an E-score of 0.116.
The E-score of `GGTAAGTA` is reported as -0.00609.
`ACCGCTAA` has an E-score of 0.201.
For `ACACCAAT`, the E-score was -0.112.
For `AGTTAATA`, the E-score was -0.0212.
The E-score of `CACCTTAG` is reported as -0.105.
The E-score of `AATGTGTA` is reported as -0.116.
`GCATTTAA` gave an E-score of -0.0438.
The E-score of `AAACAACG` is reported as 0.0913.

Sample 3 — method: protein-binding microarray; form: hairpin DNA; medium: in vitro; concentration: not given; baseline: not given; direction: higher = stronger binding
Target: Runt-related transcription factor 1, full length (RUNX1, Homo sapiens, UniProt Q01196-8, residues 1-480)
Notes: whole hairpin DNA, median over replicate spots
`GAGGCCCAACCGCAACTGCCTCCTGGCAGTTGCGGTTGGGCCTCACACTC` has a median fluorescence of 5890 a.u.
`CTCAGTTCTGTGGGGTGGACTCCTGTCCACCCCACAGAACTGAGACACTC (5mC at 30)` has a median fluorescence of 1880 a.u.
The median fluorescence of `GAGGCCTGTCGCGCTTGGCCTCCTGGCCAAGCGCGACAGGCCTCACACTC (5mC at 14)` is reported as 1650 a.u.
`GAGGCCCAACCCGAACAGCCTCCTGGCTGTTCGGGTTGGGCCTCACACTC (5mC at 12)` has a median fluorescence of 1870 a.u.
The median fluorescence of `GAGGCCTGTTGCGGTGGGCCTCCTGGCCCACCGCAACAGGCCTCACACTC (5mC at 29)` is reported as 3160 a.u.
`GAGGCCTGTTGTGGATGGCCTCCTGGCCATCCACAACAGGCCTCACACTC` has a median fluorescence of 1750 a.u.
With `CTCAGCGCTGTGGGCTGGACTCCTGTCCAGCCCACAGCGCTGAGACACTC (5mC at 6 38)` the median fluorescence was 1970 a.u.
`CTCAGTTCTGTCGGCTGGACTCCTGTCCAGCCGACAGAACTGAGACACTC` has a median fluorescence of 1860 a.u.
The median fluorescence of `GAGGCCCAACCTCAACAGCCTCCTGGCTGTTGAGGTTGGGCCTCACACTC` is reported as 2030 a.u.
With `GAGGCCTGTCGCGGTTGGCCTCCTGGCCAACCGCGACAGGCCTCACACTC (5mC at 42)` the median fluorescence was 2690 a.u.
The median fluorescence of `GAGGCCTGTCGCGCGTGGCCTCCTGGCCACGCGCGACAGGCCTCACACTC` is reported as 1870 a.u.
With `CTCAGTTCTGTGGGCTGGACTCCTGTCCAGCCCACAGAACTGAGACACTC (5mC at 32)` the median fluorescence was 1750 a.u.
The median fluorescence of `GAGGCCTGTTGCGGTTGGCCTCCTGGCCAACCGCAACAGGCCTCACACTC (5mC at 34)` is reported as 6860 a.u.
`GAGGCCCAACCCCAACAGCCTCCTGGCTGTTGGGGTTGGGCCTCACACTC` has a median fluorescence of 2110 a.u.
The median fluorescence of `GAGGCCCCGCCGCAACAGCCTCCTGGCTGTTGCGGCGGGGCCTCACACTC` is reported as 2560 a.u.
The median fluorescence of `GAGGCCCAACCGCAACAGCCTCCTGGCTGTTGCGGTTGGGCCTCACACTC (5mC at 10)` is reported as 1930 a.u.
The median fluorescence of `CTCAGTTCTCGGGGCTGGACTCCTGTCCAGCCCCGAGAACTGAGACACTC (5mC at 10)` is reported as 1770 a.u.
The median fluorescence of `GAGGCCTGCCGCGGTTGGCCTCCTGGCCAACCGCGGCAGGCCTCACACTC` is reported as 2480 a.u.
The median fluorescence of `GAGGCCCAACCGCTACAGCCTCCTGGCTGTAGCGGTTGGGCCTCACACTC` is reported as 2490 a.u.
`GAGGCCCAACCGCAGCAGCCTCCTGGCTGCTGCGGTTGGGCCTCACACTC (5mC at 30)` gave a median fluorescence of 4890 a.u.

Sample 4 — method: protein-binding microarray; form: double-stranded DNA, one strand shown; medium: in vitro; concentration: 2200 nM top; notes: 60-bp whole probe; together with: salmon DNA 0.4 mg/ml; baseline: random background probes; direction: higher = stronger binding; shared flanks, not repeated: GCCTAGCAC … GTCTTGATTCGCTTGACGCTGCTG
Target: Interferon regulatory factor 7, full length, phosphomimetic (IRF7, Homo sapiens, UniProt Q92985, residues 1-503, S471D/S472D/S475D/S476D/S477D/S483D/S484D/S487D)
UniProt Q92985, sequence (whole entry, unmodified, looked up): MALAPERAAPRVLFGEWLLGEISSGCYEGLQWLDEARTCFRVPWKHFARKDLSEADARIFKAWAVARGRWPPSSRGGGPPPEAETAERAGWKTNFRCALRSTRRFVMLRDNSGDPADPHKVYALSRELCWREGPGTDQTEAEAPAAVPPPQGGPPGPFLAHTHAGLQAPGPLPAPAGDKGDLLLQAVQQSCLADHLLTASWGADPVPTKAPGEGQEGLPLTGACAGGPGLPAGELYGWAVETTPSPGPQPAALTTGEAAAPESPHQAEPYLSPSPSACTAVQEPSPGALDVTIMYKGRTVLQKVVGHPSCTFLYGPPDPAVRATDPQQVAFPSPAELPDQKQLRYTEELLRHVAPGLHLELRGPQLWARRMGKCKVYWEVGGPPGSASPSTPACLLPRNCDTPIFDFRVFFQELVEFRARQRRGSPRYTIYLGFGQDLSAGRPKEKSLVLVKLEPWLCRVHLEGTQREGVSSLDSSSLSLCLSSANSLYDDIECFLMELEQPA
Under “fitted relative affinity”, `GACGGATTCGACACTGGGGACGTGCTA` is recorded as 0.156 z-score.
`TCAAGTCCCATGTTGCAGACTGTGCTA`: “fitted relative affinity” 0.465 z-score.
For `AGCAGGGGCGCAGGTAGGTGGTGCTAG`, “fitted relative affinity” read -1.25 z-score.
For `GAAGGTCTCGGTATCGGGACGTGCTAG`, “fitted relative affinity” read 0.339 z-score.
Under “fitted relative affinity”, `GACGAACTGGGGACTGGAGAGGTGCTA` is recorded as -0.75 z-score.
`GACGTTATCAGTCTCGAGACGTGCTAG` — result for “fitted relative affinity”: 0.775 z-score.
`GACGTACTGGACTATCGGGACGTGCTA`: “fitted relative affinity” -0.0335 z-score.
Under “fitted relative affinity”, `TTAGGTTTCGTTTTCGGTTAGTGCTAG` is recorded as 15.4 z-score.
For `TCAACTCTCAGAATCTCACTGTGCTAG`, “fitted relative affinity” read 0.677 z-score.
Under “fitted relative affinity”, `TTAGAACTGAGTCTCGATCAGTGCTAG` is recorded as -0.505 z-score.
`TCACATTTGGTTAGCGTACTGTGCTAG` — result for “fitted relative affinity”: 2.04 z-score.
For `TTAGAACTGGGGGATCGATTAGTGCTA`, “fitted relative affinity” read 0.493 z-score.
For `CGCTTTCTTTAACTCATTTTGTGCTAG`, “fitted relative affinity” read 2.43 z-score.
Under “fitted relative affinity”, `AAACCATTTTTTTTCACTATGTGCTAG` is recorded as 1.23 z-score.
For `TTAGGACTGGGTCTCGGTTGGTGCTAG`, “fitted relative affinity” read -0.14 z-score.
For `GACGGTATCGACTATCGCGACGTGCTA`, “fitted relative affinity” read 0.0103 z-score.
For `GACGGGTCCCTTTTCCTGACGTGCTAG`, “fitted relative affinity” read 0.713 z-score.
`GATGGTATCGGGTTTCGGGACGTGCTA` — result for “fitted relative affinity”: 1.71 z-score.
`GACGGTCGCCTTTTCCTGACGTGCTAG`: “fitted relative affinity” 0.647 z-score.
Under “fitted relative affinity”, `GTCAGGGGTCTTGCTCTGTAGTGCTAG` is recorded as -0.78 z-score.
Under “fitted relative affinity”, `TTAGATTTGGGGACTGGATTAGTGCTA` is recorded as 0.167 z-score.
Under “fitted relative affinity”, `CTATATTTGCTTCAGGTTTAGTGCTAG` is recorded as 1.56 z-score.
Under “fitted relative affinity”, `GGGATTTTTAGTTAGAAAAAGTGCTAG` is recorded as -0.723 z-score.
Under “fitted relative affinity”, `CACGGTTTCCTTATCCTGACGTGCTAG` is recorded as 3.21 z-score.
`GACGAACTGAGACTTGAGACGTGCTAG`: “fitted relative affinity” -0.0774 z-score.

Excerpt of the above (sample 2):
`CTCCACAG` gave an E-score of -0.187.
For `GGCGAGAA`, the E-score was -0.00734.
With `ACTTCCCA` the E-score was -0.137.
`TAAGACAA` gave an E-score of 0.00689.
`CCCTTCCC` gave an E-score of -0.0517.
With `TAAAGGCA` the E-score was -0.193.
